Measured values gathered from unrelated publications.
Numbered parts are unrelated; each lists some results of a single study.

Block 1
Target: Histone acetyltransferase KAT6A, both winged helices, GST fusion (KAT6A, Homo sapiens, UniProt Q92794, residues 1-181)
Technique: protein binding microarray
Form: double-stranded DNA, one strand shown
Medium: in vitro
Concentration: not given
Setting: 8-mer, flanks averaged, mean of 2 arrays, mostly near background
Reference: not given
Reading: higher = stronger binding
Residues (chain): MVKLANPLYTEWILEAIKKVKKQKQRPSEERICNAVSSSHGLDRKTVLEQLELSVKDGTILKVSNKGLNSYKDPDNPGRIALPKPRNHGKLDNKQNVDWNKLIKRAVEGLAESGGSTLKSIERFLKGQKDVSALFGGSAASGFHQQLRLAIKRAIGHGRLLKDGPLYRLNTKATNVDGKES
Oligonucleotide	E-score
ATGCCTGC	-0.0877
CACGTGTC	-0.144
AAGGGGGC	-0.206
AGTCGTCA	-0.15
CTCTTTAA	-0.169
TCTTGCCA	-0.2

Block 2
Target: Ras GTPase-activating protein-binding protein 1, full length (G3BP1, Homo sapiens, UniProt Q13283)
Sequence of UniProt Q13283 (whole entry, looked up): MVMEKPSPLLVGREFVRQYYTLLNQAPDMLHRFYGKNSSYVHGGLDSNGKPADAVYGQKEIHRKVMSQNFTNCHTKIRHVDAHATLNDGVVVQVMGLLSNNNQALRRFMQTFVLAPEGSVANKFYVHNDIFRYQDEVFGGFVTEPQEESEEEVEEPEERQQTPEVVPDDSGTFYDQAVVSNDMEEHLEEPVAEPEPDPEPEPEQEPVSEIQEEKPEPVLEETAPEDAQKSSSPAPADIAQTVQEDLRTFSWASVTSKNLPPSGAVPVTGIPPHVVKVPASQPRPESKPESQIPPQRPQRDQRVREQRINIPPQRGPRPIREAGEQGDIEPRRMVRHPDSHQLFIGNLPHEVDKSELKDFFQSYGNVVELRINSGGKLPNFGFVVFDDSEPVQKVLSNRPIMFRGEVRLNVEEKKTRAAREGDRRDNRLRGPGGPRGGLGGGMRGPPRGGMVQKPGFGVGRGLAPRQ
Technique: RNA Bind-n-Seq
Form: RNA
Medium: in vitro
Concentration: 200 nM
Setting: whole 134-nt RNA, ends assumed
Added: 150 mM LiCl
Reference: input library
Reading: higher = stronger binding
All molecules: 7-deaza-guanosine replaces G
Oligonucleotide	log2 enrichment
GGGAGUUCUACAGUCCGACGAUCUCCUCAAGUCCUGUGCUACACAUCGUAUGUACCGAAUCGGGAGGGAGGGAGGAAAGUAUUAUGUUACGCCGUUCGGAUCUGCACUUCCAGUGGAAUUCUCGGGUGUCAAGG	0.11
GGGAGUUCUACAGUCCGACGAUCUAUCCCCUAUGAGGCACCACGUAAGACCUCCUGCCCUUAGCUCUCUUGCUCACCACCCAAGAACCUCAGGACAGAAGCGAGAGCCCAUUGUGGAAUUCUCGGGUGUCAAGG	1.31
GGGAGUUCUACAGUCCGACGAUCGCAGGAAGUAAAAACAAAUGGAAAUGCUUCGGAUAGUGGCAGGGGUGGGGGUUGCUAAGGACAGGGUGGGAUGGGAGUGGGUAAAGAGUUUGGAAUUCUCGGGUGUCAAGG	-0.111
GGGAGUUCUACAGUCCGACGAUCUUUGCAGGGAGUGGUACGGGUAUCACUUUCCGGAGCUGGUGAAGAUCAUCAACGACAAUGCCACAUACUGCCGUCUUGCCCAGUUUAUUGUGGAAUUCUCGGGUGUCAAGG	0.41

Block 3
Target: Interferon regulatory factor 3, full length, phosphomimetic (IRF3, Homo sapiens, UniProt Q14653, residues 1-427, S386D/S396D/S398D/S402D/T404D/S405D)
Sequence of UniProt Q14653 (whole entry, unmodified, looked up): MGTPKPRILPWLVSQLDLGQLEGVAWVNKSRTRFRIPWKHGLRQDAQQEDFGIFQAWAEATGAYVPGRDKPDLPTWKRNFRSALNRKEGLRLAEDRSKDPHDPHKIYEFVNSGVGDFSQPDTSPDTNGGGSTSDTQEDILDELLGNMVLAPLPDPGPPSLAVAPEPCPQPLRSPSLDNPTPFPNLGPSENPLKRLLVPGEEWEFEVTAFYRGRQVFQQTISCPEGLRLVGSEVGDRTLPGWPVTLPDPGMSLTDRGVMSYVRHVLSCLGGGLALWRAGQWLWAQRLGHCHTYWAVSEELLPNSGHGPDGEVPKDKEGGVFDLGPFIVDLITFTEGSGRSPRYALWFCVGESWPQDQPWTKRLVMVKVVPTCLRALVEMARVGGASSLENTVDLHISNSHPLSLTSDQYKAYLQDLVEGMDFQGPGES
Technique: protein-binding microarray
Form: double-stranded DNA, one strand shown
Medium: in vitro
Concentration: 2540 nM top
Setting: 60-bp whole probe
Added: salmon DNA 0.4 mg/ml
Reference: random background probes
Reading: higher = stronger binding
All sequences stand within: GCCTAGCAC … GTCTTGATTCGCTTGACGCTGCTG
Oligonucleotide	fitted relative affinity [z-score]
GACGATATCAGTTTCGTGACGTGCTAG	2.79
TGAGGTTTCCTTTTCCTTTAGTGCTAG	11.9
GAAGGTATCCTTCTCCTGACGTGCTAG	7.06
GACGGTAACGGGTATCGGGACGTGCTA	-0.124
GACGGTTTCGGGACTGGTGACGTGCTA	4.76

Mixed results
Substance	target	assay	test system	setting	scale	quantity	result
PhoQ, residues 284 288 289 292 302 303 NLSRDF	PhoP, residues 12 14 15 18 19 TPWLV (Escherichia coli, UniProt P23836)	Sort-seq, measured: YFP reporter	E. coli	PhoQ-PhoP variant library, added: 10 µM Mg2+	reference: high Mg2+ state, higher = stronger signaling	fold induction	8.99

Some of these lines once more (block 3):
Oligonucleotide	fitted relative affinity [z-score]
GACGATATCAGTTTCGTGACGTGCTAG	2.79
